Published values of several laboratories.
A part holds a random share of what one study measured.
Sequence of UniProt Q9Y4K4 (whole entry, looked up): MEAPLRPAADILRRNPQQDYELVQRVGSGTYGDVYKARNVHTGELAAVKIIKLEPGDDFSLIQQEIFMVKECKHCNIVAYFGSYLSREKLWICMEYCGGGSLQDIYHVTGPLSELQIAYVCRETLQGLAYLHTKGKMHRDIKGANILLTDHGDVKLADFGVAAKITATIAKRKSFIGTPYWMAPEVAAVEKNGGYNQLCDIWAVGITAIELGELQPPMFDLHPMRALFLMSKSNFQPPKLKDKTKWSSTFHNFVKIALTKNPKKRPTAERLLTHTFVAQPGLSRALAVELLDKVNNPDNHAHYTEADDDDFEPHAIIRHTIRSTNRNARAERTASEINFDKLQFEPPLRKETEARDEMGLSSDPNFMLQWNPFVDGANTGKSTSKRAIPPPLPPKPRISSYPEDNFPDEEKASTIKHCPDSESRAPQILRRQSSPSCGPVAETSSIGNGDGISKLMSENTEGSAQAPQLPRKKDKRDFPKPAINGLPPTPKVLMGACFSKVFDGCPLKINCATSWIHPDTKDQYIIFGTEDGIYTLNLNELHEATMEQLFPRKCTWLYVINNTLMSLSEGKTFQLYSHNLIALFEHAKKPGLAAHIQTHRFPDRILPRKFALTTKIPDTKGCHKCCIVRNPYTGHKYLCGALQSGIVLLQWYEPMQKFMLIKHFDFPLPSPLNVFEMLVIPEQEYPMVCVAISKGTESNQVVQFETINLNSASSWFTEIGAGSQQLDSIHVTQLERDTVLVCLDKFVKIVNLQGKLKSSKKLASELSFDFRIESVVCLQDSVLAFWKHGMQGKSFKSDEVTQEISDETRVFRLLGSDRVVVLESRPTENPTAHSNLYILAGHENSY
Sequence of UniProt Q9NQU5 (whole entry, looked up): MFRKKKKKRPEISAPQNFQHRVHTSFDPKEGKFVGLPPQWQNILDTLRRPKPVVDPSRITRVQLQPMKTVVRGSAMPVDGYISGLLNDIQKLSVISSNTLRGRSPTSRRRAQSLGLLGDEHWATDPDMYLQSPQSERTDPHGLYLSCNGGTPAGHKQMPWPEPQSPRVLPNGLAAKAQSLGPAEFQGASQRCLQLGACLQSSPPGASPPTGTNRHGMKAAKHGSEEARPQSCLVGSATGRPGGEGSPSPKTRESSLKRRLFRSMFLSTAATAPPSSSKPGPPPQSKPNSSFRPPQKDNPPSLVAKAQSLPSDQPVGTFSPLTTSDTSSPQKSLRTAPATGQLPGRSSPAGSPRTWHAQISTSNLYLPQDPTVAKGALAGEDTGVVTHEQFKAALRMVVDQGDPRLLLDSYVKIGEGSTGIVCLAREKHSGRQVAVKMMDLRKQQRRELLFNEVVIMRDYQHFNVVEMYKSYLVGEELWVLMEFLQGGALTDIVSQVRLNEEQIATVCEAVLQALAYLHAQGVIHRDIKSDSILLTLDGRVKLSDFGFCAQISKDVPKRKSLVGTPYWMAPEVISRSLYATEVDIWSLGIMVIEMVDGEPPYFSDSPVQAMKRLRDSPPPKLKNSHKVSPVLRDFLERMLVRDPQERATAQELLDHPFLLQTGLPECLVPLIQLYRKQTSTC
Sequence of UniProt P27448 (whole entry, looked up): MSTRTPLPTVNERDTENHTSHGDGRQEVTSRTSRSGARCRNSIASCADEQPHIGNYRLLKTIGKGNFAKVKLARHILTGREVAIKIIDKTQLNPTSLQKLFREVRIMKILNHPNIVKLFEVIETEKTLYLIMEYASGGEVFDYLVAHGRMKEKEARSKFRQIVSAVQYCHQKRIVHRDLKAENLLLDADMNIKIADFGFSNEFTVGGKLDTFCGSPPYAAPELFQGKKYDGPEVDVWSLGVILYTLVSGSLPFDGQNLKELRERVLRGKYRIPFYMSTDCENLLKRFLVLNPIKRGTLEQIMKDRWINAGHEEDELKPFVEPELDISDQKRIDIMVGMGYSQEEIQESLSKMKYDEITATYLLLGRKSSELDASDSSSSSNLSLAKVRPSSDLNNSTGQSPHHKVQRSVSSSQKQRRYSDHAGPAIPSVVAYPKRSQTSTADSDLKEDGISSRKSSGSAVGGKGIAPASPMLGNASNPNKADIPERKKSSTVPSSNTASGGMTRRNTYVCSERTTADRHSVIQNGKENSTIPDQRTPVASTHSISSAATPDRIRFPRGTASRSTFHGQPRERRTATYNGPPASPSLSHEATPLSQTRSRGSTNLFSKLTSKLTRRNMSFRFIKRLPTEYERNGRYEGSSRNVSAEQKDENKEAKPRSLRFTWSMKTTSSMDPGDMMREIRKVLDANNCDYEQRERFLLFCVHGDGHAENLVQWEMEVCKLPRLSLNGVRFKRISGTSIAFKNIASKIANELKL
Sequence of UniProt P07947 (whole entry, looked up): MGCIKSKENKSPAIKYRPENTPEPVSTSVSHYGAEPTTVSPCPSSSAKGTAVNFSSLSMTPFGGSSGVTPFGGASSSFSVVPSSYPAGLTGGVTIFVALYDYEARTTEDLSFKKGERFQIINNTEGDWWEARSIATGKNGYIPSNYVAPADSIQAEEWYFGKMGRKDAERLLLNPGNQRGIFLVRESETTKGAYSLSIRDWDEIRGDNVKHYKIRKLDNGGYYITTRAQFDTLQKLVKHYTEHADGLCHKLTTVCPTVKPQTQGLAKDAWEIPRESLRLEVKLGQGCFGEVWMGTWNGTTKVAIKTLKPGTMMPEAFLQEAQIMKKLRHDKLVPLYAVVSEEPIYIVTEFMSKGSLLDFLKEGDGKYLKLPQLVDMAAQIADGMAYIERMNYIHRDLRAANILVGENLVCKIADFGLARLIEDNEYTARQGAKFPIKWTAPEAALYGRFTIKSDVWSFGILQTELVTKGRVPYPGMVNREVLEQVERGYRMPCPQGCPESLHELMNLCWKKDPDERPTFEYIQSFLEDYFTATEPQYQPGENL
Sequence of UniProt P53350 (whole entry, looked up): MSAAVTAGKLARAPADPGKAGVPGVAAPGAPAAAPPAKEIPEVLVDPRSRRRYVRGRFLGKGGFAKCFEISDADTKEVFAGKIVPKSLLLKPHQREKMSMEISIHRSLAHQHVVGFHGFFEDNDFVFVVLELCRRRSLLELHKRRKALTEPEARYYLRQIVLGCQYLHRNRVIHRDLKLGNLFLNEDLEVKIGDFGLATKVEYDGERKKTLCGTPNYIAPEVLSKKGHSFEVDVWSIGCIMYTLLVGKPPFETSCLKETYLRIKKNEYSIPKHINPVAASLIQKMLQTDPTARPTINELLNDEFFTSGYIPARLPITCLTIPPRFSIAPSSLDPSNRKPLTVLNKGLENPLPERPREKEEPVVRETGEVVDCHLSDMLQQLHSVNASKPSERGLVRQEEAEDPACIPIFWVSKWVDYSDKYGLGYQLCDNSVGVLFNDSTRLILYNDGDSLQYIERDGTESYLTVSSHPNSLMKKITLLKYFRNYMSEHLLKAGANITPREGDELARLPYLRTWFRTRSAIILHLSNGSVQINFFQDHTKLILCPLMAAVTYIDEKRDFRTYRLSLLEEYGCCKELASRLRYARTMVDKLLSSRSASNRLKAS
Sequence of UniProt Q6XUX3 (whole entry, looked up): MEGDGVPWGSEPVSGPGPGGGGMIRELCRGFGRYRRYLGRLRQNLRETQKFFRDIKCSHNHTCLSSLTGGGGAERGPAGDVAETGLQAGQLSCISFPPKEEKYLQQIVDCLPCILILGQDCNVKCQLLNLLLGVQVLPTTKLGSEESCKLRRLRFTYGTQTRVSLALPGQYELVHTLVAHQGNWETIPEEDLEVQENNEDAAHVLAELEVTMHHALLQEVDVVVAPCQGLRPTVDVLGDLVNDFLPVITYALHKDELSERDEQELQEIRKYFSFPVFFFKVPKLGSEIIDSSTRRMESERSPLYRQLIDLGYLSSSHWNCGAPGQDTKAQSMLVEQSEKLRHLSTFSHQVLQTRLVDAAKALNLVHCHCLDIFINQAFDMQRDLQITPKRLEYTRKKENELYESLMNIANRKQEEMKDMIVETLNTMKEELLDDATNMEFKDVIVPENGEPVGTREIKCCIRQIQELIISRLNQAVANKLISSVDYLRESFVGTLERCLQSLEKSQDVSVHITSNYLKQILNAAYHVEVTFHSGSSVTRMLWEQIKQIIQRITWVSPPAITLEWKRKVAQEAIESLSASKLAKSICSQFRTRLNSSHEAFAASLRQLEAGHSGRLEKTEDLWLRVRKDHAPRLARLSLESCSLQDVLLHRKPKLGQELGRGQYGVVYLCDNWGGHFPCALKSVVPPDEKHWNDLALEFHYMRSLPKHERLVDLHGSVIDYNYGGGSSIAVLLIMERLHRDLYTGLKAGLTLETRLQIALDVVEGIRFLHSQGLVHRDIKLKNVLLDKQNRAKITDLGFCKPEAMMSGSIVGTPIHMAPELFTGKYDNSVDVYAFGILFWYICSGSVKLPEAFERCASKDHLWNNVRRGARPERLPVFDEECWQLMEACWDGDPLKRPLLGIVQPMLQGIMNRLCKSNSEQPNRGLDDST

Study 1 — technique: DNA-protein interaction ELISA; molecule type: double-stranded DNA, one strand shown; sample: in vitro, bacterial lysate; concentration: not given; setting: whole dsDNA probe, crude lysate protein; reference: highest signal in screen; direction: higher = stronger binding
Target: Probable WRKY transcription factor 11, DNA-binding domain (WRKY11, Arabidopsis thaliana, UniProt Q9SV15, residues 228-325)
Construct (chain): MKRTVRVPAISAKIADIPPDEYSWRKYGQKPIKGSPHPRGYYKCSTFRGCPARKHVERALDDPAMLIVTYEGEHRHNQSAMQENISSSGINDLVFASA
| Strand | relative absorbance |
| --- | --- |
| AAAAAAGTTCGGGGCTTGGTTTGGAAAAAA | 17.9 % of maximum |
| AAAAAAGACCGCAGCAAGAATTAAATAAAA | 11.2 % of maximum |
| AAAAAATTTATACTTGATCCTGGCTTAAAA | 15.3 % of maximum |
| AAAAAATCATCTCTATGTTATTGTTGAAAA | 14.4 % of maximum |
| AAAAAACGTTGAACCTGGGCCTCAACAAAA | 36 % of maximum |
| AAAAAATGGAAAGACCTATACCGGTCAAAA | 27.9 % of maximum |
| AAAAAACACTGCACTATTGGGAGTTCAAAA | 14.1 % of maximum |
| AAAAAAATTACGCGGGATCGCCAAAA | 16.1 % of maximum |

Study 2 — technique: Spec-seq; molecule type: double-stranded DNA, one strand shown; sample: in vitro; concentration: not given; setting: whole probe, mean of replicates; reference: not given; direction: lower = stronger binding; constant ends, left off below: GAGTCGTCTCGTCAGCAC … CCGTAGAGCACTCAGGTC
Target: Transcription factor SOX-2, HMG box (Sox2, Mus musculus, UniProt P48432, residues 41-119)
Sequence of UniProt P48432 (41-119, looked up): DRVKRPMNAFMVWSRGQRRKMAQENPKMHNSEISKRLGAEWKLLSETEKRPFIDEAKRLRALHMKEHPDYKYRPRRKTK
| Strand | relative binding energy [ln ratio] |
| --- | --- |
| CATCAAG | 0.23 |
| ATCAGTT | 0.416 |
| CATTAGC | 0.0857 |
| CATCACT | 0.613 |
| ATATGTT | -0.0139 |
| CATTACG | -0.24 |
| CATGATC | 0.207 |
| TCTGGTT | 0.849 |

Study 3 — effect on: cell-free assay; technique: competition with immobilised ligand; concentration: 0.1 µM
Compound: CS(=O)(=O)N1CCCC(NC(=O)[C@H](CCC2CCCCC2)NC(=O)c2ccc(CNc3ncnc4c3nnn4-c3ccccc3)cc2)C1 (some centres unmarked)
| target | remaining binding [%] |
| --- | --- |
| BMP-2-inducible protein kinase (BMP2K, Homo sapiens, UniProt Q9NSY1) | 84 |
| MAP/microtubule affinity-regulating kinase 3 (MARK3, Homo sapiens, UniProt P27448) | 100 |
| Mitogen-activated protein kinase kinase kinase kinase 5 (MAP4K5, Homo sapiens, UniProt Q9Y4K4) | 76 |
| Phosphatidylinositol 4,5-bisphosphate 3-kinase catalytic subunit alpha isoform (PIK3CA, Homo sapiens, UniProt P42336, M1043I) | 87 |
| Tyrosine-protein kinase Yes (YES1, Homo sapiens, UniProt P07947) | 98 |
| Serine/threonine-protein kinase PAK 6 (PAK6, Homo sapiens, UniProt Q9NQU5) | 100 |
| Serine/threonine-protein kinase PLK2 (PLK2, Homo sapiens, UniProt Q9NYY3) | 99 |
| Epidermal growth factor receptor (EGFR, Homo sapiens, UniProt P00533, del752-759) | 100 |
| Dual serine/threonine and tyrosine protein kinase (DSTYK, Homo sapiens, UniProt Q6XUX3) | 80 |
| Serine/threonine-protein kinase PLK1 (PLK1, Homo sapiens, UniProt P53350) | 80 |
| Tyrosine-protein kinase receptor TYRO3 (TYRO3, Homo sapiens, UniProt Q06418) | 90 |
| Phosphatidylinositol 4-phosphate 3-kinase C2 domain-containing subunit beta (PIK3C2B, Homo sapiens, UniProt O00750) | 95 |

Mixed results
| Substance | partner | technique | sample | together with | endpoint | result |
| --- | --- | --- | --- | --- | --- | --- |
| COX5B (Homo sapiens, UniProt P10606) | COA3 (Homo sapiens, UniProt Q9Y2R0) | cross-linking MS | cell fractions | DSSO | cross-linked residues | K57 to K48 |

Repeated from above (study 3):
| target | remaining binding [%] |
| --- | --- |
| Epidermal growth factor receptor (EGFR, Homo sapiens, UniProt P00533, del752-759) | 100 |
| Dual serine/threonine and tyrosine protein kinase (DSTYK, Homo sapiens, UniProt Q6XUX3) | 80 |
| Serine/threonine-protein kinase PLK1 (PLK1, Homo sapiens, UniProt P53350) | 80 |
